Published values collected from several papers.
A part holds a random share of what one study measured.

Sample 1
Target: Histone acetyltransferase KAT6A, winged helix 2, GST fusion (KAT6A, Homo sapiens, UniProt Q92794, residues 85-181)
Technique: protein binding microarray
Molecule type: double-stranded DNA, one strand shown
Medium: in vitro
Tested at: not given
Notes: 8-mer, flanks averaged, mean of 2 arrays, mostly near background
Relative to: not given
Reading: higher = stronger binding
Endpoint: E-score
Target sequence (chain): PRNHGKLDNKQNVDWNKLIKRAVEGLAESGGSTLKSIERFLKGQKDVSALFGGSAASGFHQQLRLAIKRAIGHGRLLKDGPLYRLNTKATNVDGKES
TCAGCCAA: -0.096
AACTCTGA: 0.137
GCAAAAAA: 0.142
GATGAGGC: -0.137

Sample 2
Target: Interferon regulatory factor 3, full length, phosphomimetic (IRF3, Homo sapiens, UniProt Q14653, residues 1-427, S386D/S396D/S398D/S402D/T404D/S405D)
Technique: protein-binding microarray
Molecule type: double-stranded DNA, one strand shown
Medium: in vitro
Tested at: 2540 nM top
Notes: 60-bp whole probe
With: salmon DNA 0.4 mg/ml
Relative to: random background probes
Reading: higher = stronger binding
Endpoint: fitted relative affinity
Target sequence (chain): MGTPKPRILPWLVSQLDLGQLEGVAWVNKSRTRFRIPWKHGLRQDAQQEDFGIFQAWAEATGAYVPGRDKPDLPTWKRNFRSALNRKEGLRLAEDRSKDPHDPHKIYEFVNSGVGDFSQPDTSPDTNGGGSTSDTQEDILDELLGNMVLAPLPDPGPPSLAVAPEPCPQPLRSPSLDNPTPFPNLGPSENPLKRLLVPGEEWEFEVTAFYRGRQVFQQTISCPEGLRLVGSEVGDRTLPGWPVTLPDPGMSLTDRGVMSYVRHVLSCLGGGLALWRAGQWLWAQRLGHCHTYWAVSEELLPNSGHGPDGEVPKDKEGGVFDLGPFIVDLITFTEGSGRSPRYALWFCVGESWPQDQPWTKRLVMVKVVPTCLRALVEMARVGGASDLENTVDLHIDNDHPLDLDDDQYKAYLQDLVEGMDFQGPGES
GCCTAGCACGACCGTTTCCTTTTCCTGACGTGCTAGGTCTTGATTCGCTTGACGCTGCTG: 9.19 z-score
GCCTAGCACTGTGTTATTAAATTTTCACGGGTGCTAGTCTTGATTCGCTTGACGCTGCTG: -0.146 z-score
GCCTAGCACTAAGGTTTCGACTATCGGTTAGTGCTAGTCTTGATTCGCTTGACGCTGCTG: 2.38 z-score
GCCTAGCACGACGGTTTCGGTCTCGGGACGTGCTAGGTCTTGATTCGCTTGACGCTGCTG: 8.3 z-score

Sample 3
Target: Sal-like protein 4, full length isoform A (SALL4, Homo sapiens, UniProt Q9UJQ4, residues 1-1053)
Sequence of UniProt Q9UJQ4 (whole entry, looked up): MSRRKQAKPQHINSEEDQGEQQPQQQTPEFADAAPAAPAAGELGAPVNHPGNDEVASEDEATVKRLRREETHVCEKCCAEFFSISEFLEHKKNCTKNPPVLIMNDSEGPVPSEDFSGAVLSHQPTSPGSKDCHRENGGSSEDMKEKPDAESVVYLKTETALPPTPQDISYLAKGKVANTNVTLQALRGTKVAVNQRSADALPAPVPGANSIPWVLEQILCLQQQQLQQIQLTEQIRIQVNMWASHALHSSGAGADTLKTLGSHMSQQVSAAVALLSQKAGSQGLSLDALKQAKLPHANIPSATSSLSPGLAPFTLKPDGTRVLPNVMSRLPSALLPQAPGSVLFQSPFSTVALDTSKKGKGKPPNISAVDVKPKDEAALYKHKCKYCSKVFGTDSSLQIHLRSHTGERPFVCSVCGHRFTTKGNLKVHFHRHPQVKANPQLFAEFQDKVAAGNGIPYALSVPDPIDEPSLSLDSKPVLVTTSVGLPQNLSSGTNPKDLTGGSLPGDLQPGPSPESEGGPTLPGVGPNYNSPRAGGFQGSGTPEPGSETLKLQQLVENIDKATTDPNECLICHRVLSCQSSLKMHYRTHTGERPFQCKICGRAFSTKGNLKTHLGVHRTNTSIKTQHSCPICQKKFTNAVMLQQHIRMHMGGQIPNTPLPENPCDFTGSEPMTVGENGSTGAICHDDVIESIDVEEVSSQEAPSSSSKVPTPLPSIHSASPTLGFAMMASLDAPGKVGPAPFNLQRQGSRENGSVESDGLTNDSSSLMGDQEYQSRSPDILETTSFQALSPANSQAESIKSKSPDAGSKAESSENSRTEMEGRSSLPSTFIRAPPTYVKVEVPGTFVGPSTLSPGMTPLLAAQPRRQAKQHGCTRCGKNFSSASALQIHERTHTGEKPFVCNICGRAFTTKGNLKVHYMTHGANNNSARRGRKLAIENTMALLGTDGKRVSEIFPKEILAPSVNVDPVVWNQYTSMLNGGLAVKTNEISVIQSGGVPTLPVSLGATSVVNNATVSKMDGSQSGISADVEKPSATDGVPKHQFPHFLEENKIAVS
Technique: universal PBM
Molecule type: double-stranded DNA, one strand shown
Medium: in vitro
Tested at: 600 nM
Notes: 8-mer, flanks averaged, mean of replicates
Reading: higher = stronger binding
Endpoint: E-score
AGTCTCAT: 0.135
GTGAAACA: 0.124
GACTTGTA: 0.247
CAGAGTTC: -0.169
ACCGACCA: -0.193
GTCAGCTA: -0.0912

Mixed results
PhoQ, residues 284 288 289 292 302 303 GLASVI
fold induction (PhoP, residues 12 14 15 18 19 NHFIF (Escherichia coli, UniProt P23836); Sort-seq, measured: YFP reporter; E. coli; PhoQ-PhoP variant library, with: 10 µM Mg2+; relative to: high Mg2+ state, higher = stronger signaling): 2.8

A few entries again (sample 3):
CAGAGTTC: -0.169
GTCAGCTA: -0.0912
